Results gathered from unrelated publications.
Compare with care: the assays were run in different laboratories. ± gives the spread as reported.

For `COc1cccc2c1C(=O)c1c(O)c3c(c(O)c1C2=O)C[C@@](O)(C(=O)CO)C[C@@H]3O[C@H]1C[C@H](N)[C@H](O)[C@H](C)O1`, the IC50 was 0.128 ± 0.023 µM (HeLa expressing mutant P-gp 14; cell viability; 48 h).
With `O=c1ccn([C@@H]2O[C@H](CO)[C@@H](O)[C@H]2O)c(=S)[nH]1` the IC50 was greater than 50 µM (HepG2; cell growth; 120 h).
`CO[C@@H]1[C@@H](OC(N)=O)[C@@H](O)[C@H](Oc2ccc3c(O)c(NC(=O)c4ccc(O)c(CC=C(C)C)c4)c(=O)oc3c2C)OC1(C)C` has an IC50 of 50 to 100 µM (DLD-1 BRCA2 knockout; colony survival).
With `CO[C@H]1C[C@H](O[C@@H]2/C(C)=C/C[C@@H]3C[C@@H](C[C@]4(CC[C@H](C)[C@@H](C5CCCCC5)O4)O3)OC(=O)[C@@H]3C=C(C)/C(=N/O)[C@H]4OC/C(=C\C=C\[C@@H]2C)[C@]43O)O[C@@H](C)[C@@H]1O` the IC50 was 21.6 ± 1.3 µM (CAR-luc cells).
With `C[C@H]1COCCN1c1nc(NCc2cccnc2C(F)(F)F)c2cccnc2n1` the IC50 was 190 µM (HepG2 spheroids; cytotoxicity).
For `COc1cc(C[C@H]2COC(=O)[C@@H]2Cc2ccc(O)c(OC)c2)ccc1O`, the IC50 was 3.55 µg/mL (neuroblastoma M2, MYCN overexpressing; cell viability, SRB; added: doxycycline).
`CC[C@H](C)[C@H](NC(=O)CN)C(=O)NCC(=O)N[C@@H](C)C(=O)N[C@H](C(=O)N[C@@H](CC(C)C)C(=O)N[C@@H](CCCCN)C(=O)N[C@H](C(=O)N[C@@H](CC(C)C)C(=O)N[C@H](C(=O)N[C@H](C(=O)NCC(=O)N[C@@H](CC(C)C)C(=O)N1CCC[C@H]1C(=O)N[C@@H](C)C(=O)N[C@@H](CC(C)C)C(=O)N[C@H](C(=O)N[C@@H](CO)C(=O)N[C@@H](Cc1c[nH]c2ccccc12)C(=O)N[C@H](C(=O)N[C@@H](CCCCN)C(=O)N[C@@H](CCCNC(=N)N)C(=O)N[C@@H](CCCCN)C(=O)N[C@@H](CCCNC(=N)N)C(=O)N[C@@H](CCC(N)=O)C(=O)N[C@@H](CCC(N)=O)C(N)=O)[C@@H](C)CC)[C@@H](C)CC)[C@@H](C)O)[C@@H](C)O)C(C)C)C(C)C` gave an IC50 of 13.1 µM (human red blood cells; haemolysis; pH 7.4, 37 °C; baseline: Triton X-100).
With `CO[C@H]1C[C@H](O[C@H]2[C@H](C)O[C@@H](O[C@@H]3/C(C)=C/C[C@@H]4C[C@@H](C[C@]5(C=C[C@H](C)[C@@H](C6CCCCC6)O5)O4)OC(=O)[C@@H]4C=C(C)[C@@H](O)[C@H]5OC/C(=C\C=C\[C@@H]3C)[C@]54O)C[C@@H]2OC)O[C@@H](C)[C@@H]1O` the IC50 was 12.5 ± 0.34 µM (CAR-luc cells).
`CN1CCN(S(=O)(=O)c2cc([N+](=O)[O-])ccc2N(CCOS(C)(=O)=O)CCOS(C)(=O)=O)CC1` gave an IC50 of 6.91 µM (sample DA T-ALL PDX cells; cell viability; ex vivo; 48 h, added: AKR1C3 inhibitor 1 µM, 1 h pretreatment).
`O=C1C=CC(=O)c2c(O)cccc21` has an IC50 of 3.8 µM (HFF-1; cytotoxicity, MTT; 48 h).
For `COc1c(C)c2c(c(O)c1C/C=C(\C)CCC(=O)O)C(=O)OC2`, the IC50 was 0.457 µM (UMUC3; cell proliferation; bladder cancer).
